Experimental data collected from several papers.
Numbered parts are unrelated; each lists some results of a single study. Changes are numbered by the printed parent chain.

Set 1 — method: universal PBM; molecule type: double-stranded DNA, one strand shown; matrix: in vitro; tested at: not given; reading: higher = stronger binding
Target: Sal-like protein 4, full length isoform B (SALL4, Homo sapiens, UniProt Q9UJQ4-2, residues 1-616)
Notes: 8-mer, flanks averaged, mean of replicates
Construct (chain): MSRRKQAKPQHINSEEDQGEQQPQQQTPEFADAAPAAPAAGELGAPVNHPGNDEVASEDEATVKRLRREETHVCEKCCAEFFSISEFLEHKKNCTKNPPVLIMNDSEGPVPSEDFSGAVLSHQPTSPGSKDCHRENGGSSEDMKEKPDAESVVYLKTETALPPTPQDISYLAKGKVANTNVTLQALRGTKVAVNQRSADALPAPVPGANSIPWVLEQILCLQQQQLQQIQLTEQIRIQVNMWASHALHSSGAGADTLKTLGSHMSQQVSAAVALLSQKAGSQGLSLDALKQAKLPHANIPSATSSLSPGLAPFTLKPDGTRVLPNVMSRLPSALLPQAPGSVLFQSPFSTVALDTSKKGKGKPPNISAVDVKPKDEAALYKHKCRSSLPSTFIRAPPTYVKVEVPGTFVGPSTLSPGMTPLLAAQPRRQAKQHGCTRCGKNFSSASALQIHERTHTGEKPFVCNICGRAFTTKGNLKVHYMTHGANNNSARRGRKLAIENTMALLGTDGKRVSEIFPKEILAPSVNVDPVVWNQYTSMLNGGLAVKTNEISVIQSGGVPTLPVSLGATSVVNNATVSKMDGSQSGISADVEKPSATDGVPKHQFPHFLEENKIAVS
The E-score of `GACAGAAC` is reported as 0.0572.
`TAGCTTAA` has an E-score of 0.134.
With `AGAGCTAT` the E-score was -0.0055.
For `CTGCACCA`, the E-score was -0.161.
`ATCAAGTG` gave an E-score of 0.0927.
With `CTACTGGA` the E-score was -0.226.
With `AACGTGCA` the E-score was 0.0387.
For `CAGTCGTA`, the E-score was -0.0148.
For `ACCCAGAC`, the E-score was -0.193.
For `AGTTACTG`, the E-score was -0.0278.
The E-score of `AGCCCGAA` is reported as -0.225.
`ACCCAGTG` gave an E-score of -0.259.
`GAGGCCGA` has an E-score of -0.289.
With `ATCTGGTA` the E-score was 0.167.
For `GATTCAGA`, the E-score was 0.0131.
`ATGCTAGA` gave an E-score of 0.164.
`ATGTGTAG` gave an E-score of 0.174.

Set 2 — method: RNA Bind-n-Seq; molecule type: RNA; matrix: in vitro; tested at: 200 nM; notes: whole 134-nt RNA, ends assumed; with: 150 mM KCl; reference: input library; reading: higher = stronger binding
Target: Fragile X messenger ribonucleoprotein 1, C-terminal low-complexity region (Fmr1, Mus musculus, UniProt P35922)
Constant ends, left off below: GGGAGUUCUACAGUCCGACGAUC … UGGAAUUCUCGGGUGUCAAGG
With `GCAGGAAGUAAAAACAAAUGGAAAUGCUUCGGAUAGUGGCAGGGGUGGGGGUUGCCAAGGAAAGGGUGGGAUGGGAGUGGGUAAAGAGUU` the log2 enrichment was 0.116.
`GCACGAAGUAAAAACAAAUGGAAAUGCUUCGGAUAGUGGCAGGGGUGGGGGUUGCUAAGGAAAGGGUGGGAUGGGAGUGGGUAAAGAGUU` has a log2 enrichment of 0.0705.
With `UGGGAGGUGGAUUUUGUUUAUUUUUUUAGCUCAUUUCCAGGGGUGGGAAUUCUUUUUUAAUAUGUGUCAUGAAUAAAGUUGUUUUUGAAA` the log2 enrichment was 0.197.
`UCAAGUCCUGUGCUACACAUCGUAUGUACCGAAUCGGUUUUUGGUUUGGUUUGGAAAGUAUUAUGUUACGCCGUUCGGAUCUGCACUUCC` gave a log2 enrichment of -0.633.
With `UCCUGUGCUACACAUCGUAUGUACCGAAUCGGGGAAAGGGGAAAGGGGUUUUUUUGGGGAAAGUAUUAUGUUACGCCGUUCGGAUCUGCA` the log2 enrichment was 0.417.
`CAAGUCCUGUGCUACACAUCGUAUGUACCGAAUCGGGCCGGGGCCGGGGCCGGGGAAAGUAUUAUGUUACGCCGUUCGGAUCUGCACUUC` gave a log2 enrichment of -0.163.
The log2 enrichment of `UCCAGUCUAGCUUUGGAGAAGCGCCAACCUGCUCACUGCCGCCGACCAGACUGCAUGUUUGGUUGUACUUGUUUGAAAAGAAAAGUUGUA` is reported as -0.991.
For `UCCGCGUGUGAAGUUUUUCUCGGCUGCAUCAUGGGUGCCACAUUCUUUUUGUUGUUUUCAGUGCUGCAAAAGCCCCAUAUCUGGCCAAGU`, the log2 enrichment was -0.531.
`CAAGUCCUGUGCUACACAUCGUAUGUACCGAAUCGGUUUUGGUUUUGGGGUUUUGGAAAGUAUUAUGUUACGCCGUUCGGAUCUGCACUU` gave a log2 enrichment of -0.763.

Set 3 — method: protein binding microarray; molecule type: double-stranded DNA, one strand shown; matrix: in vitro; tested at: not given; reference: not given; reading: higher = stronger binding
Target: Histone acetyltransferase KAT6A, winged helix 2, GST fusion (KAT6A, Homo sapiens, UniProt Q92794, residues 85-181)
Notes: 8-mer, flanks averaged, mean of 2 arrays, mostly near background
Construct (chain): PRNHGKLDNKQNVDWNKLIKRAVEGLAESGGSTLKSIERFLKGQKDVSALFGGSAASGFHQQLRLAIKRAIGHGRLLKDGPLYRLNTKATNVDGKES
`AAACGGTA` has an E-score of 0.0241.
`CCTCAACA` gave an E-score of 0.246.
With `AGTGGGAG` the E-score was 0.0815.
For `CAGATCCG`, the E-score was 0.255.
For `ACTAACCT`, the E-score was 0.0124.
The E-score of `GCACAAAA` is reported as 0.238.
`AAGCAAGC` gave an E-score of 0.0706.
`CCGAATTC` has an E-score of 0.0196.
`TGTTCCAA` has an E-score of -0.0711.
For `ACTTAGCT`, the E-score was -0.187.
With `GATAAAAA` the E-score was 0.0794.
`GTCTCCAA` has an E-score of -0.0576.
For `CATGGAAC`, the E-score was -0.0162.
For `AAAGGCCC`, the E-score was -0.0553.
`AGCCCAAT` gave an E-score of -0.0321.
`AAGTAATG` gave an E-score of -0.033.

Set 4 — target: CCNE1, cyclin fold, Cln2 fusion (human); method: yeast growth competition, sequencing; matrix: yeast; notes: weak parent motif; reference: not given; reading: higher = stronger binding
Starting sequence: MASTL docking peptide (human); PMIAKNLMCELDE
`PMIAKNLMCEFDE [L11F]`: “normalised enrichment score” -0.0691.
For `PMIAKNLMAELDE [C9A]`, “normalised enrichment score” read 0.277.
`PMMAKNLMCELDE [I3M]` — result for “normalised enrichment score”: 0.0101.
For `PMIAYNLMCELDE [K5Y]`, “normalised enrichment score” read 0.037.
`PMIAKNLMCELQE [D12Q]`: “normalised enrichment score” 0.0263.
For `PMIASNLMCELDE [K5S]`, “normalised enrichment score” read -0.31.
`PMKAKNLMCELDE [I3K]`: “normalised enrichment score” 0.0593.
`PMIAKNLMDELDE [C9D]`: “normalised enrichment score” 0.0723.
`PMIAKVLMCELDE [N6V]` — result for “normalised enrichment score”: 0.27.
Under “normalised enrichment score”, `PMIAKNLDCELDE [M8D]` is recorded as -0.00418.
Under “normalised enrichment score”, `PHIAKNLMCELDE [M2H]` is recorded as -0.0218.
Under “normalised enrichment score”, `PMIAKNLMCSLDE [E10S]` is recorded as -0.0283.
For `PMIAKNLMCGLDE [E10G]`, “normalised enrichment score” read -0.0209.
`PVIAKNLMCELDE [M2V]`: “normalised enrichment score” 0.0916.
`PMIAKKLMCELDE [N6K]` — result for “normalised enrichment score”: 0.104.
`PMIAKNLFCELDE [M8F]` — result for “normalised enrichment score”: 0.0267.
`PMIAKNLMCWLDE [E10W]`: “normalised enrichment score” 0.113.

Some of these lines once more (set 2):
`GCACGAAGUAAAAACAAAUGGAAAUGCUUCGGAUAGUGGCAGGGGUGGGGGUUGCUAAGGAAAGGGUGGGAUGGGAGUGGGUAAAGAGUU` has a log2 enrichment of 0.0705.
With `UGGGAGGUGGAUUUUGUUUAUUUUUUUAGCUCAUUUCCAGGGGUGGGAAUUCUUUUUUAAUAUGUGUCAUGAAUAAAGUUGUUUUUGAAA` the log2 enrichment was 0.197.
`UCAAGUCCUGUGCUACACAUCGUAUGUACCGAAUCGGUUUUUGGUUUGGUUUGGAAAGUAUUAUGUUACGCCGUUCGGAUCUGCACUUCC` gave a log2 enrichment of -0.633.
With `UCCUGUGCUACACAUCGUAUGUACCGAAUCGGGGAAAGGGGAAAGGGGUUUUUUUGGGGAAAGUAUUAUGUUACGCCGUUCGGAUCUGCA` the log2 enrichment was 0.417.
`CAAGUCCUGUGCUACACAUCGUAUGUACCGAAUCGGGCCGGGGCCGGGGCCGGGGAAAGUAUUAUGUUACGCCGUUCGGAUCUGCACUUC` gave a log2 enrichment of -0.163.
The log2 enrichment of `UCCAGUCUAGCUUUGGAGAAGCGCCAACCUGCUCACUGCCGCCGACCAGACUGCAUGUUUGGUUGUACUUGUUUGAAAAGAAAAGUUGUA` is reported as -0.991.
For `UCCGCGUGUGAAGUUUUUCUCGGCUGCAUCAUGGGUGCCACAUUCUUUUUGUUGUUUUCAGUGCUGCAAAAGCCCCAUAUCUGGCCAAGU`, the log2 enrichment was -0.531.
`CAAGUCCUGUGCUACACAUCGUAUGUACCGAAUCGGUUUUGGUUUUGGGGUUUUGGAAAGUAUUAUGUUACGCCGUUCGGAUCUGCACUU` gave a log2 enrichment of -0.763.
